Assay results pooled from the literature.
Protocols differ between the studies behind these lines. Several values in a cell are separate wells, animals, samples, runs or records. ± marks the error that the study gave.
ALB: Albumin (ALB, Homo sapiens, UniProt P02768)
uncharacterized protein: uncharacterized protein (Spodoptera exigua, UniProt F1CEY0)
Sequence of UniProt Q16774 (whole entry, unmodified, looked up): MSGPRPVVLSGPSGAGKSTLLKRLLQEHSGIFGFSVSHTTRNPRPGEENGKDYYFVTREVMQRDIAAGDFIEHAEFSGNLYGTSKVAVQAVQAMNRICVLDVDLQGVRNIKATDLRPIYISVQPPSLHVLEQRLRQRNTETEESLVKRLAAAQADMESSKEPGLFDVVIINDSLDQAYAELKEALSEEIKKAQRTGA
Sequence of UniProt P00441 (whole entry, unmodified, looked up): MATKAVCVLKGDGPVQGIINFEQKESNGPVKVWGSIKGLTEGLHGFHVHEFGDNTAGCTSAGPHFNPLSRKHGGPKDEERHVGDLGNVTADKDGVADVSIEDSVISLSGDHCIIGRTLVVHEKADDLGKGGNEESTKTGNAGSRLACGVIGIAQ
Sequence of UniProt P51575 (whole entry, unmodified, looked up): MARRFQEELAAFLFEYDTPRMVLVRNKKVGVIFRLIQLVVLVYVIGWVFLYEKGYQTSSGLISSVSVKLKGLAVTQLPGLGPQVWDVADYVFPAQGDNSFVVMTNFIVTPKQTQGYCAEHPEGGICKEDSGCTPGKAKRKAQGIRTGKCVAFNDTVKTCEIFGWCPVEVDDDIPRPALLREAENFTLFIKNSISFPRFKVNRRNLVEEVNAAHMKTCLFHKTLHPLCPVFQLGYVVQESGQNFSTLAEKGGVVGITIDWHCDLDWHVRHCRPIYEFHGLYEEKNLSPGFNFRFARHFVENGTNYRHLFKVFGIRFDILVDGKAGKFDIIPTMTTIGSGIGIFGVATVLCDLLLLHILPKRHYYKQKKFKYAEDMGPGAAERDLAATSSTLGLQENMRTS
Sequence of UniProt Q16853 (whole entry, looked up): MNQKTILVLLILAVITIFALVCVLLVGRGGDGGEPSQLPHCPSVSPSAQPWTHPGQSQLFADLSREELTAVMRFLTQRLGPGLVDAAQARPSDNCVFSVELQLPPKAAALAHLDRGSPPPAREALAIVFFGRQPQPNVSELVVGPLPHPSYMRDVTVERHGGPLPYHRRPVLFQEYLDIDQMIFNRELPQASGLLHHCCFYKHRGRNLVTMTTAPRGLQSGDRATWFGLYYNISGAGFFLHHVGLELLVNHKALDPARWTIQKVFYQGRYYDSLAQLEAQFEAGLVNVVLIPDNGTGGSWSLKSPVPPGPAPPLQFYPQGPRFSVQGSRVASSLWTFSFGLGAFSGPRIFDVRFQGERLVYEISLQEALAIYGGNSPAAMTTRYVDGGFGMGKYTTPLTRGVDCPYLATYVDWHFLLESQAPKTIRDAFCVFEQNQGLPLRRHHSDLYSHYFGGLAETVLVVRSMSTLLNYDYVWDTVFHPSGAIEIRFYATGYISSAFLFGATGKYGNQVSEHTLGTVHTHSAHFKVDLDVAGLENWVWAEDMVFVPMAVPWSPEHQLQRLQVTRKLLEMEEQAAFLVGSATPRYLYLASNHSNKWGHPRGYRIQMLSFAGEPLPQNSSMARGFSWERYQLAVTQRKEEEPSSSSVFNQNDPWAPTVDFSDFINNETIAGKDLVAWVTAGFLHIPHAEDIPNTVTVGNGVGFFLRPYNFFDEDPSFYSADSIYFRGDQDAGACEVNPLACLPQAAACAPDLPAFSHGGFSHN
Sequence of UniProt P08546 (whole entry, looked up): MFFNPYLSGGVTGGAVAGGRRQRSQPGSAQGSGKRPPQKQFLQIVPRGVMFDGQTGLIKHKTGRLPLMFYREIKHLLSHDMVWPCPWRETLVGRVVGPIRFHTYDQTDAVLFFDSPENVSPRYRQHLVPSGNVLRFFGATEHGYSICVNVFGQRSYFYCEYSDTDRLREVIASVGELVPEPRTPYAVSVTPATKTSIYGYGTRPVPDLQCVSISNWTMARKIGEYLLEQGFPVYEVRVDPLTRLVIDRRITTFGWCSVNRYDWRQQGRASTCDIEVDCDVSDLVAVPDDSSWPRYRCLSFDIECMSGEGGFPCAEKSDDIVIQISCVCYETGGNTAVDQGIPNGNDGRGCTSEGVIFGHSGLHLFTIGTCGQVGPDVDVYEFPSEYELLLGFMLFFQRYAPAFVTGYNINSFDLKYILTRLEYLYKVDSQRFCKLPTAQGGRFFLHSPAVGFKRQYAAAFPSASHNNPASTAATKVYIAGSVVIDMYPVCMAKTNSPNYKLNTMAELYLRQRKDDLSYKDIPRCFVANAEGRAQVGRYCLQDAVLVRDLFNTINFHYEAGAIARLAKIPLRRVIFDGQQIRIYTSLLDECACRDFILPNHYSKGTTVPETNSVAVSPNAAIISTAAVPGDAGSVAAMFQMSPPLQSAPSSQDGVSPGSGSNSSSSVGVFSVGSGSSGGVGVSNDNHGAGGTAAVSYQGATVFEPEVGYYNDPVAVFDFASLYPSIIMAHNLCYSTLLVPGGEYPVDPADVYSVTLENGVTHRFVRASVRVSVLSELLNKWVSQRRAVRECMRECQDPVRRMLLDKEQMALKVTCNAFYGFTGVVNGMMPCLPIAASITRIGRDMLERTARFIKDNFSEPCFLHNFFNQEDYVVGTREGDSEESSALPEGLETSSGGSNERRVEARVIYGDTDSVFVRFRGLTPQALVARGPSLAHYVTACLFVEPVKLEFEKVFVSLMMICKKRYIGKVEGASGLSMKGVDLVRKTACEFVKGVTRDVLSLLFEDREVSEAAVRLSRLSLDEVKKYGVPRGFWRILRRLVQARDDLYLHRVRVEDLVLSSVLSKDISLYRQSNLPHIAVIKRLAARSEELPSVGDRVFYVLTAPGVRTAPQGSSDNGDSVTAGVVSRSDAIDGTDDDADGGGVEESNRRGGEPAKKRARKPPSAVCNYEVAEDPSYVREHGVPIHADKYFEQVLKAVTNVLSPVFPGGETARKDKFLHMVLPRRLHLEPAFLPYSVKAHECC
Sequence of UniProt Q99759 (whole entry, looked up): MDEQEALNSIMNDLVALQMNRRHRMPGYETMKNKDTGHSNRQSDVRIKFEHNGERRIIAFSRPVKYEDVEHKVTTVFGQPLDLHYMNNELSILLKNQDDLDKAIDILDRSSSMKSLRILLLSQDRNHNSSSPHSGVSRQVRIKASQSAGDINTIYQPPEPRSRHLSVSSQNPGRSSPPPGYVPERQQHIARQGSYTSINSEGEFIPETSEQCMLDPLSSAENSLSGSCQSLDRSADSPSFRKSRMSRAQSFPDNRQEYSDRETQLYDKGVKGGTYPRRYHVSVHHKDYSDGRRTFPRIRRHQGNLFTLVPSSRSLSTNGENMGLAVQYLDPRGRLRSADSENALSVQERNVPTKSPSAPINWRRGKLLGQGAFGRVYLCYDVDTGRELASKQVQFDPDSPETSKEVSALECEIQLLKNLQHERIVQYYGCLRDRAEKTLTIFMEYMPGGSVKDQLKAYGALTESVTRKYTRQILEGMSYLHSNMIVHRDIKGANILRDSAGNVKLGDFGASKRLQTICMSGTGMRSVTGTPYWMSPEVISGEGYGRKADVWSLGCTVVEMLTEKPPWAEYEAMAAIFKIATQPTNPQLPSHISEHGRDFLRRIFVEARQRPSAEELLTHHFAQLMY
Sequence of UniProt P40337 (whole entry, unmodified, looked up): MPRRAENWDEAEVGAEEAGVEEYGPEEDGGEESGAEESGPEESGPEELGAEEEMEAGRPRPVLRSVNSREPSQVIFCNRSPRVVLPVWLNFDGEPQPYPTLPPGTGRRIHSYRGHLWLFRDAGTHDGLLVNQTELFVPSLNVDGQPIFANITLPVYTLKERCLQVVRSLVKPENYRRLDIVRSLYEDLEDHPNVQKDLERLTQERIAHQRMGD
Sequence of UniProt P52497 (whole entry, looked up): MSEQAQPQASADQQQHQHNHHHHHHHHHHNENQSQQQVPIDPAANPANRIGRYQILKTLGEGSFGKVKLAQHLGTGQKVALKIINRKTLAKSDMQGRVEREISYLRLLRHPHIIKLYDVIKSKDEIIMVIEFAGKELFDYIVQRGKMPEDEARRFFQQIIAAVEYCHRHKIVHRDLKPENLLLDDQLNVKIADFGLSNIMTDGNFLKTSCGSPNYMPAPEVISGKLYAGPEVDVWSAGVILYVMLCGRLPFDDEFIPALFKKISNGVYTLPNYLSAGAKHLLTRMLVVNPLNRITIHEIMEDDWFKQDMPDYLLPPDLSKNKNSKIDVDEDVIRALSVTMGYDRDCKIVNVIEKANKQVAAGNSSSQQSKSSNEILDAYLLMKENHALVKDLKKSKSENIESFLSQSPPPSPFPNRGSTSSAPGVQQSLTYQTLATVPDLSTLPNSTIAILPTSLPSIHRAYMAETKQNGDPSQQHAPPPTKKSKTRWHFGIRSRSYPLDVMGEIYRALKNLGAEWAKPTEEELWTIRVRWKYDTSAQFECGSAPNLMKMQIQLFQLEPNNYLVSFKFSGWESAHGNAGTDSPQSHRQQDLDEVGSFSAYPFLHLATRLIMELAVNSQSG
Sequence of UniProt P02776 (whole entry, looked up): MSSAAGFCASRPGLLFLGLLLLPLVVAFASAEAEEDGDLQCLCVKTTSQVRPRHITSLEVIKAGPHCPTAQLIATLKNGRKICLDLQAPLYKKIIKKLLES

CC1(C)CC2(C)OC(=O)NC2(C)c2ccccc21 (stereo not shown)
fold enrichment (DNA mismatch repair protein Msh6 (Homo sapiens, UniProt P52701); binding, affinity selection mass spectrometry; reference: other proteins in batch): 1.14

CC[C@@H](C)[C@@H](NC(=O)[C@@H](Cc1ccc(O)cc1)NC(=O)[C@H]1CCCN1C(=O)[C@@H](CCCNC(=N)N)NC(=O)[C@H](N)Cc1c[nH]cn1)C(=O)N[C@H](C)C(=O)N[C@H](Cc1c[nH]cn1)C(=O)N[C@H](CCCNC(=N)N)C(=O)N[C@@H](C(=O)N[C@H](Cc1ccc(O)cc1)C(=O)N[C@H](CO)C(=O)N[C@H](Cc1ccccc1)C(N)=O)C(C)C
surface TFRC expression (Transferrin receptor protein 1 (Tfrc, Mus musculus, UniProt Q62351); flow cytometry; B16; 48 h, unit not given; reference: 0 h): 0.487

C#Cc1c(F)ccc2cc(O)cc(-c3ncc4c(N5CC6CCC(C5)N6)nc(OC[C@@]56CCCN5C[C@H](F)C6)nc4c3F)c12
dissociation rate constant (GTPase KRas, GppNHp-bound (KRAS, Homo sapiens, UniProt P01116, A146T); binding): 0.00494 ± 0.00098 s⁻¹

NC/C(=C\F)COc1cccc(Cn2c(=S)[nH]c(=O)c3[nH]cnc32)c1
inhibition (Amine oxidase [copper-containing] 3 (AOC3, Homo sapiens, UniProt Q16853); H2O2 production, Amplex Red; 0.1111 µM, recombinant human enzyme): 98.6% and 99.6%

Nc1nc2c(ncn2[C@@H]2O[C@H](COP(=O)(O)OP(=O)(O)O[C@H]3O[C@H](CO)[C@@H](O)[C@H](O)[C@@H]3O)[C@@H](O)[C@H]2O)c(=O)[nH]1
Km (Bacillus thuringiensis ThuS; substrate; sugar donor): < 10 µM

CC(=O)N[C@H](C(=O)N1C[C@H](O)C[C@H]1C(=O)NCc1ccc(-c2scnc2C)cc1)C(C)(C)SCCCCCCNC(=O)C[C@@H]1N=C(c2ccc(Cl)cc2)c2c(sc(C)c2C)-n2c(C)nnc21
ΔH (BRD2/VHL, BD1; with VCB (Homo sapiens, UniProt P25440+P40337); ITC; 25 °C, BRD2 BD1, ternary): -2.61 ± 0.05 kcal/mol

O=c1nc(SCc2cc(F)cc(C(F)(F)F)c2)nc(SCc2csc3ccc(Cl)cc23)[nH]1
mean decatenated DNA (DNA topoisomerase 2-alpha (TOP2A, Homo sapiens, UniProt P11388); decatenation; 7.8 µM): 93.2%

N[C@H](CNC(=O)c1cc(Br)c(-c2ccccc2F)s1)C(=O)O
Hill slope (Glutamate receptor ionotropic, NMDA 1, with GluN2D (Grin1, Rattus norvegicus, UniProt P35439); added: glutamate 300 µM): 1.62

C1CCCC1.C1CCCC1.[Cl][W][Cl]
Stern-Volmer quenching constant (ALB; fluorescence quenching; 310 K): 4770 L/mol

N[C@H](CNC(=O)c1ccc(-c2cccc3ccccc23)s1)C(=O)O
Hill slope (Glutamate receptor ionotropic, NMDA 1, with GluN2A (Grin1, Rattus norvegicus, UniProt P35439); added: glutamate 300 µM): 1.36

CC[C@@H]1[C@H](F)C(=O)N[C@@H]1COc1nccc2cc(C(N)=O)c(OC)cc12
inhibition (Serine/threonine-protein kinase D2 (PRKD2, Homo sapiens, UniProt Q9BZL6); ATP-site probe binding, ActivX profiling, item: PKD2; THP-1 cell lysate; 0.2 mM, Lys1 site): 6.8%

COc1ccc(F)cc1C(=O)NCc1ccc(-c2nn([C@@H](C)C(F)(F)F)c(N)c2C(N)=O)cc1
remaining activity (Mitogen-activated protein kinase kinase kinase 3 (MAP3K3, Homo sapiens, UniProt Q99759); kinase activity, inhibitor, HotSpot radiometric; 1000 nM, added: ATP at Km): 82.2 ± 2.5%

[H]/N=C(/N)NCC(=O)O
normalised MST signal (Sodium- and chloride-dependent taurine transporter (SLC6A6, Homo sapiens, UniProt P31641, G62A); binding, microscale thermophoresis; 250 µM, room temperature, added: 50 nM labelled protein; higher = more binding): 0.0364

Nc1nc2c(ncn2[C@@H]2O[C@H](COP(=O)(O)O)[C@@H](O)[C@H]2O)c(=O)[nH]1
reaction rate (GUK1 (Homo sapiens, UniProt Q16774, Y81A); enzyme activity, NADH-coupled; 31.25 µM): 0.619 s⁻¹ and 2.62 s⁻¹ and 1.68 s⁻¹

O=C(Nc1ccc(-c2ccccc2)cc1)[C@H]1O[C@H](O[C@@H]2[C@@H](OCc3ccc4ccccc4c3)[C@H](O[C@H]3O[C@H](CNS(=O)(=O)O)[C@@H](OCc4ccc5ccccc5c4)C[C@H]3NS(=O)(=O)O)[C@@H](NS(=O)(=O)O)C[C@H]2NS(=O)(=O)O)[C@H](OCc2ccc3ccccc3c2)[C@@H](NS(=O)(=O)O)[C@@H]1OCc1ccc2ccccc2c1
selectivity ratio (Platelet factor 4 (Homo sapiens, UniProt P02776); reference: IC50 PF4 over IC50 heparanase): > 300 fold

C[C@@H]1CC[C@H]2C(C)(C)[C@H]3C[C@@]12CC[C@@]3(C)O
relative fluorescence (uncharacterized protein; binding, competitor, fluorescence displacement; 20 µM, pH 7.4, added: 1-NPN 20 µM; reference: 1-NPN alone): 67%

Cc1ccc2nc(NC(=O)c3ccccc3)[nH]c2c1
displacement (Adenosine receptor A2a (ADORA2A, Homo sapiens, UniProt P29274); binding, radioligand competition; 10 µM, added: [3H]ZM241385): 17 ± 1%

O=C(COP(=O)(O)O)[C@@H](O)[C@H](O)[C@H](O)COP(=O)(O)O
thermal stability ratio (Pre-mRNA-processing-splicing factor 8 (PRPF8, Homo sapiens, UniProt Q6P2Q9); thermal proteome profiling; HepG2 cell lysate; concentration not given, 57 over 37 °C, mean; reference: compound over control): 0.542

Nc1ncnc2c1ncn2[C@@H]1O[C@H](COP(=O)(O)CP(=O)(O)OP(=O)(O)O)[C@@H](O)[C@H]1O
specific binding (P2X purinoceptor 1 (P2RX1, Homo sapiens, UniProt P51575, R139A); saturation binding; HEK293; 52 nM): 2100 CCPM and 3210 CCPM

C=CC(=C)CCC=C(C)C
relative fluorescence (uncharacterized protein; binding, competitor, fluorescence displacement; 20 µM, pH 7.4, added: 1-NPN 20 µM; reference: 1-NPN alone): 64.7%

Cc1ccc(C[C@H](NC(=O)OC(C)(C)C)C(=O)NC/C=C/S(=O)(=O)c2ccccc2)cc1
kinact/Ki (Procathepsin L (CTSL, Homo sapiens, UniProt P07711); inhibitor; added: Z-Phe-Arg-pNA): 5840 M⁻¹ s⁻¹

CC(=O)N[C@@H](CCCNC(=N)N)C(=O)N[C@@H](CCCNC(=N)N)C(=O)N[C@H]1CSSC[C@@H](C(=O)N[C@@H](CCCNC(=N)N)C(=O)N[C@@H](CCCNC(=N)N)C(N)=O)NC(=O)[C@H](C(C)C)NC(=O)[C@@H]2CCCN2C(=O)[C@H](CC(=O)O)NC(=O)[C@H](Cc2ccc(O)cc2)NC(=O)[C@H](CO)NC(=O)[C@H](CC2CCCC2)NC(=O)[C@H](Cc2ccc(-c3ccccc3)cc2)NC(=O)[C@H](CC(C)C)NC(=O)[C@@H]2CCCN2C1=O
lowest bound protein concentration (GTPase KRas, GDP-bound (KRAS, Homo sapiens, UniProt P01116, G12D); affinity selection mass spectrometry; mixture library 1, added: protein titration up to 5 µM; lower is stronger binding): 5 µM

N[C@@H](Cc1ccc(O)cc1)C(=O)Nc1ccc2ccccc2c1
kcat (Puromycin-sensitive aminopeptidase (Rattus norvegicus, UniProt F1M9V7); substrate; MW 100 kDa): 18.7 s⁻¹

CC(C)=CCC/C(C)=C/CO
relative fluorescence (uncharacterized protein; binding, competitor, fluorescence displacement; 20 µM, pH 7.4, added: 1-NPN 20 µM; reference: 1-NPN alone): 67.2%

C=CC(=O)N1CCC(COCC(=O)N2CCN(c3nc(-c4cnc(N)nc4C(F)F)nc(N4CCOC[C@@H]4C)n3)CC2)CC1
remaining binding (Mitogen-activated protein kinase 7 (MAPK7, Homo sapiens, UniProt Q13164); KINOMEscan; 1 µM): 100%

CC1(F)CN(C(=O)Cn2c(=O)c(C(=O)NCc3ccc(Cl)cc3)cc3nc(N4CCN(CC(=O)O)C4=O)cnc32)C1
Hill slope (DNA polymerase catalytic subunit (Human cytomegalovirus, UniProt P08546); enzyme activity, inhibitor): 0.91

COc1cc(-c2[o+]c3cc(O)cc(O)c3cc2O[C@@H]2O[C@H](CO)[C@@H](O)[C@H](O)[C@H]2O)ccc1O
binding enthalpy change (ALB; van't Hoff analysis; concentration not given): -6.01 kcal/mol

CC[C@H](C)[C@H](NC(=O)[C@H](CCCCN)NC(=O)[C@@H](NC(=O)[C@H](CCCCN)NC(=O)[C@H](CCCCN)NC(=O)CNC(=O)[C@H](CO)NC(=O)[C@H](C)NC(=O)[C@@H](NC(=O)[C@H](Cc1c[nH]cn1)NC(=O)[C@H](Cc1ccccc1)NC(=O)CN)[C@@H](C)O)C(C)C)C(=O)N[C@@H](C)C(=O)N[C@@H](CCCCN)C(=O)N[C@@H](CCC(=O)O)C(=O)N[C@@H](CO)C(=O)N[C@@H](CC(C)C)C(=O)N[C@@H](CC(=O)O)C(=O)N[C@@H](CCCCN)C(=O)N[C@H](C(=O)N[C@@H](CCCCN)C(=O)N[C@@H](CC(N)=O)C(=O)N[C@@H](Cc1ccccc1)C(=O)N[C@@H](Cc1ccccc1)C(=O)O)C(C)C
ΔS (human RAD51 F86E monomer; ITC; pH 7.4, 25 °C, 5 µM protein): -14 cal/mol/K

CCCCCCCCCCCCCCCCCCc1ccc(O)cc1
Stern-Volmer constant (ALB; binding, fluorescence quenching; 37 °C, protein 10 µM): 8.58 mg/mL

N#Cc1ccc2c(-c3ccncc3)c(-c3ccc(F)cc3)nn2c1
log2 fold change (Carbon catabolite-derepressing protein kinase (SNF1, Candida albicans, UniProt P52497); kinase binding, competitor, MIB/MS competition, item: SNF1; Candida albicans cell lysate; 1 µM; reference: DMSO): 0.051

[O-][S+]1CCCCS1 (stereo not shown)
SOD1 dimer level (Superoxide dismutase [Cu-Zn] (SOD1, Homo sapiens, UniProt P00441, G94A); target engagement; SOD1 G93A transgenic mice, brain; intravenous, 10 mg/kg once daily): 65% and 63%

For quick reference, copied from above:
Nc1nc2c(ncn2[C@@H]2O[C@H](COP(=O)(O)O)[C@@H](O)[C@H]2O)c(=O)[nH]1
reaction rate (GUK1 (Homo sapiens, UniProt Q16774, Y81A); enzyme activity, NADH-coupled; 31.25 µM): 0.619 s⁻¹ and 2.62 s⁻¹ and 1.68 s⁻¹

O=C(Nc1ccc(-c2ccccc2)cc1)[C@H]1O[C@H](O[C@@H]2[C@@H](OCc3ccc4ccccc4c3)[C@H](O[C@H]3O[C@H](CNS(=O)(=O)O)[C@@H](OCc4ccc5ccccc5c4)C[C@H]3NS(=O)(=O)O)[C@@H](NS(=O)(=O)O)C[C@H]2NS(=O)(=O)O)[C@H](OCc2ccc3ccccc3c2)[C@@H](NS(=O)(=O)O)[C@@H]1OCc1ccc2ccccc2c1
selectivity ratio (Platelet factor 4 (Homo sapiens, UniProt P02776); reference: IC50 PF4 over IC50 heparanase): > 300 fold
